# Measurements gathered from unrelated publications.
# Protocols differ between the studies behind these lines. Values joined by “and” are separate records of one study, mostly repeats; a detail may differ. Numbers after ± are the reported error.
Structure (SMILES),tested on,assay,system,conditions,scale,quantity,value
CN(C)CCCCCN(C)Cc1cc2ccccc2o1.Cl,Trypanosoma cruzi,"reporter mRNA translation, inhibitor, measured: Renilla luciferase mRNA",cell-free extract,"concentration not given, test 2",baseline: positive over negative control,translation activity,108% and 115%
N#C[C@@H]1CC(F)(F)CN1C(=O)CNC(=O)c1ccnc2ccc(OCCCN3CCN(C(=S)Nc4ccc(C[C@H]5CN(CC(N)=O)CCN(CC(N)=O)CCN(CC(N)=O)CCN5CC(N)=O)cc4)CC3)cc12 [lead-203 labelled],,,"male NRG mice, HEK293T-hFAP tumour, liver","intravenous, 100 pmol, 1 h, ex vivo, unblocked",,tissue uptake,1.73 ± 0.41 %IA/g
CC(C)C[C@H](NC(=O)[C@H](Cc1ccc(O)cc1)NC(=O)[C@@H](CCCNC(=N)N)NC(=O)[C@@H](CO)NC(=O)[C@H](Cc1ccccc1)NC(=O)[C@H](CC1CCCCC1)NC(=O)[C@H](CC(=O)O)NC(=O)CN1CCN(CC(=O)O)CCN(CC(=O)O)CCN(CC(=O)O)CC1)C(=O)N[C@@H](Cc1c[nH]c2ccccc12)C(=O)N[C@@H](CO)C(=O)O [copper-64 labelled],,,"human, thyroid","concentration not given, 1 h",,activity concentration,3190 Bq/mL and 4570 Bq/mL and 3040 Bq/mL and 2570 Bq/mL and 1980 Bq/mL and 3230 Bq/mL
CCCC[C@H](NC(=O)CCCCCCCNC(=O)CN1CCN(CC(=O)O)CCN(CC(=O)O)CC1)C(=O)N[C@H]1CC(=O)NCCCC[C@@H](C(N)=O)NC(=O)[C@H](Cc2c[nH]c3ccccc23)NC(=O)[C@H](CCCNC(=N)N)NC(=O)[C@@H](Cc2ccccc2)NC(=O)[C@H](Cc2c[nH]cn2)NC1=O [technetium-99m labelled],,,"C57 mouse, pancreas","intravenous, 0.037 MBq, 4 h",,tissue uptake,0.01 ± 0.04 %ID/g
CCCC[C@@H]1NC(=O)[C@@H](CC(C)C)NC(=O)[C@H](CCCCNC(=O)CN2CCN(CC(=O)O)CCN(CC(=O)O)CC2)NC(=O)[C@@H](CO)NC(=O)[C@H](Cc2c[nH]cn2)NC(=O)[C@@H](Cc2c[nH]c3ccccc23)NC1=O [copper-64 labelled],,,"Balb/c mice, kidneys","intravenous, dose not given",,tissue uptake,0.83 ± 0.09 %ID/g
CCc1ccc(CN2CCCC(CNC(=O)c3cccc(OC)c3OC)C2)cc1 (stereo not drawn),Trypanosoma cruzi,"reporter mRNA translation, inhibitor, measured: Renilla luciferase mRNA",cell-free extract,"concentration not given, test 1",baseline: positive over negative control,translation activity,128% and 111%
Cc1cc(-c2ccc(NC(=O)CC[C@H](NC(=O)CN3CCN(CC(=O)O)CCN(CC(=O)O)CCN(CC(=O)O)CC3)C(=O)NCC(=O)N[C@@H](CC(N)=O)C(=O)N[C@H](C(=O)N[C@H](C(=O)N[C@@H](CCCNC(=N)N)C(=O)N[C@@H](CCC(N)=O)C(=O)O)C(C)C)C(C)C)c(C)c2)ccc1/N=N/c1ccc2c(S(=O)(=O)O)cc(S(=O)(=O)O)c(N)c2c1O [copper-64 labelled],,,"nude mice, heart","intravenous, 48 h",,tissue uptake,3.8 ± 0.4 %ID/g
N#C[C@@H]1CC(F)(F)CN1C(=O)CNC(=O)c1ccnc2ccc(OCCCN3CCN(C(=O)CN4CCN(CC(N)=O)CCN(CC(N)=O)CCN(CC(N)=O)CC4)CC3)cc12 [lead-203 labelled],,,"male NRG mice HEK293T-hFAP tumour, tumour","intravenous, 100 pmol, 1 h, unblocked",,tissue uptake,8.62 ± 1.32 %ID/g
CC(C)C[C@@H](NC(=O)[C@@H](CC(C)C)NC(=O)[C@@H](CC(=O)O)NC(=O)[C@@H](CC(C)C)NC(=O)[C@@H](CC(C)C)NC(=O)[C@@H](CC(C)C)NC(=O)[C@H](NC(=O)[C@@H](CC(=O)O)NC(=O)[C@H](NC(=O)[C@H]1CCCN1C(=O)[C@@H](Cc1ccccc1)NC(=O)[C@@H](CC(C)C)NC(=O)[C@@H](CC(C)C)NC(=O)[C@@H](CC(=O)O)NC(=O)[C@@H](CC(C)C)NC(=O)[C@@H](Cc1ccc(O)cc1)NC(=O)[C@@H](C)NC(=O)[C@@H](CCCNC(=N)N)NC(=O)[C@@H](Cc1c[nH]c2ccccc12)NC(=O)[C@H]1CCCN1C(=O)[C@@H](CC(N)=O)NC(=O)[C@@H](CCC(N)=O)NC(=O)[C@@H](CC(=O)O)NC(=O)[C@@H](CC(=O)O)NC(=O)[C@@H](CSC1CC(=O)N(CCNC(=O)CN2CCN(CC(=O)O)CCN(CC(=O)O)CC2)C1=O)NC(=O)[C@@H](C)N)[C@H](C)O)[C@H](C)O)C(=O)N[C@H](Cc1c[nH]c2ccccc12)C(=O)O (stereo partly drawn) [fluorine-18 labelled],,,"female C57BL/6 mice, B16-F10 melanoma, tumor","intravenous, 1 h",,tissue uptake,6.12 %ID/g
CCCC[C@H](NC(=O)COCCOCCNC(=O)CN1CCN(CC(=O)O)CCN(CC(=O)O)CC1)C(=O)N[C@H]1CC(=O)NCCCC[C@@H](C(N)=O)NC(=O)[C@H](Cc2c[nH]c3ccccc23)NC(=O)[C@H](CCCNC(=N)N)NC(=O)[C@@H](Cc2ccccc2)NC(=O)[C@H](Cc2c[nH]cn2)NC1=O [technetium-99m labelled],,,"C57 mouse, pancreas","intravenous, 0.037 MBq, 24 h",,tissue uptake,0.04 ± 0.03 %ID/g
CC(C)C[C@H](NC(=O)[C@@H](CCCCNC(=O)[C@@H](Cc1ccccc1)NC(=O)CCCCCNC(=O)CN1CCN(CC(=O)O)CCN(CC(=O)O)CCN(CC(=O)O)CC1)NC(=O)[C@H](Cc1ccc(O)cc1)NC(=O)[C@H](CO)NC(=O)[C@H](Cc1c[nH]c2ccccc12)NC(=O)[C@H](Cc1c[nH]cn1)NC(=O)[C@@H]1CCC(=O)N1)C(=O)N[C@@H](CCCNC(=N)N)C(=O)N1CCC[C@H]1C(=O)NCC(N)=O [indium-111 labelled],,,"female athymic nude mice, brain","intravenous, 0.037 MBq, 1 h",,tissue uptake,0.01 ± 0.01 %ID/g
CCCC[C@@H]1NC(=O)[C@@H](CC(C)C)NC(=O)[C@H](CCCCNC(=O)CN2CCN(CC(=O)O)CCN(CC(=O)O)CC2)NC(=O)NNC(=O)[C@H](Cc2c[nH]cn2)NC(=O)[C@@H](Cc2c[nH]c3ccccc23)NC1=O [copper-64 labelled],,,"Balb/c mice, heart","intravenous, dose not given",,tissue uptake,0.11 ± 0.03 %ID/g

# For quick reference, copied from above:
Structure (SMILES),tested on,assay,system,conditions,scale,quantity,value
Cc1cc(-c2ccc(NC(=O)CC[C@H](NC(=O)CN3CCN(CC(=O)O)CCN(CC(=O)O)CCN(CC(=O)O)CC3)C(=O)NCC(=O)N[C@@H](CC(N)=O)C(=O)N[C@H](C(=O)N[C@H](C(=O)N[C@@H](CCCNC(=N)N)C(=O)N[C@@H](CCC(N)=O)C(=O)O)C(C)C)C(C)C)c(C)c2)ccc1/N=N/c1ccc2c(S(=O)(=O)O)cc(S(=O)(=O)O)c(N)c2c1O [copper-64 labelled],,,"nude mice, heart","intravenous, 48 h",,tissue uptake,3.8 ± 0.4 %ID/g
